{"data": "Literature values, collected from citations in different studies", "F2": "Prothrombin (F2, Bos taurus, UniProt P00735)", "B1": "CX3CL1, human; sequence looked up; chain QHHGVTKCNITCSKMTSKIPVALLIHYQQNQASCGKRAIILETRQHRLFCADPKEQWVKDAMQHLDRQAAALTRNGGTFEKQIGEVKPRTTPAAGGMDESVVLEPEATGESSSLEPTPSSQEAQRALGTSPELPTGVTGSSGTRLPPTPKAQDGGPVGTELFRVPPVSTAATWQSSAPHQPGPSLWAEAKTSEAPSTQDPSTQASTASSPAPEENAPSEGQRVWGQGQSPRPENSLEREEMGPVPAHTDAFQDWGPGSMAHVSVVPVSSEGTPSREPVASGSWTPKAEEPIHATMDPQRLGVLITPVPDAQAATRRQAVGLLAFLGLLFCLGVAMFTYQSLQGCPRKMAGEMAEGLRYIPRSCGSNSYVLVPV", "B2": "CCL4; sequence looked up; chain APMGSDPPTACCFSYTARKLPRNFVVDYYETSSLCSQPAVVFQTKRSKQVCADPSESWVQEYVYDLELN", "note": "Protocols differ between the studies behind these lines. Numbers after ± are the reported error.", "UniProt Q8HXS3, sequence (whole entry, looked up)": "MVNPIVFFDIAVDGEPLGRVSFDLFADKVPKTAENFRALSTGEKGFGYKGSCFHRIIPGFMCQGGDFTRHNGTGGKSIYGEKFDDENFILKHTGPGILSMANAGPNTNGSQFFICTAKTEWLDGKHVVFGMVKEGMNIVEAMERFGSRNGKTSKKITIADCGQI"}
{"Substance": "CCL3", "tested on": "US28 F14A", "test": "binding, radioligand competition", "quantity": "Kd", "result": "15 nM"}
{"Substance": "TVELQGVVPRGVNL", "tested on": "F2", "test": "substrate, HPLC", "system": "peptide", "quantity": "kcat", "result": "6.4 ± 0.03 s⁻¹"}
{"Substance": "B1 (CX3CL1, human)", "tested on": "US28 T11A", "test": "binding, radioligand competition", "quantity": "Kd", "result": "0.5 nM"}
{"Substance": "capsid protein (Feline immunodeficiency virus, UniProt P16087)", "tested on": "PPIA (Felis catus, UniProt Q8HXS3)", "test": "ITC", "quantity": "Kd", "result": "6200 nM"}
{"Substance": "CCL5", "tested on": "US28 Y16F", "test": "binding, radioligand competition", "quantity": "Kd", "result": "4.6 nM"}
{"Substance": "enfortumab vedotin", "system": "monkey", "quantity": "Vdss", "result": "0.07 to 0.08 L/kg"}
{"Substance": "B2 (CCL4)", "tested on": "US28 E13A", "test": "binding, radioligand competition", "quantity": "Kd", "result": "2.2 nM"}
{"Substance": "TFELQGVVPRGVNL (V29F)", "tested on": "F2", "test": "substrate, HPLC", "system": "peptide", "quantity": "Km", "result": "195 ± 34 µM"}
{"note": "Some of these lines once more:"}
{"Substance": "B2 (CCL4)", "tested on": "US28 E13A", "test": "binding, radioligand competition", "quantity": "Kd", "result": "2.2 nM"}
